# Experimental data collected from several papers.
# Each numbered part is a random draw from the data of one study; scales do not carry over between parts.

# Series 1 — method: protein-binding microarray; molecule type: double-stranded DNA, one strand shown; sample: in vitro; concentration: 250 nM; notes: 60-bp whole probe; together with: salmon DNA 0.4 mg/ml; reference: random background probes; direction: higher = stronger binding; shared flanks, not repeated: GCCTAGCAC … GTCTTGATTCGCTTGACGCTGCTG
# Target: Interferon regulatory factor 7, full length, phosphomimetic (IRF7, Homo sapiens, UniProt Q92985, residues 1-503, S101K/S471D/S472D/S475D/S476D/S477D/S483D/S484D/S487D)
# Sequence of UniProt Q92985 (whole entry, unmodified, looked up): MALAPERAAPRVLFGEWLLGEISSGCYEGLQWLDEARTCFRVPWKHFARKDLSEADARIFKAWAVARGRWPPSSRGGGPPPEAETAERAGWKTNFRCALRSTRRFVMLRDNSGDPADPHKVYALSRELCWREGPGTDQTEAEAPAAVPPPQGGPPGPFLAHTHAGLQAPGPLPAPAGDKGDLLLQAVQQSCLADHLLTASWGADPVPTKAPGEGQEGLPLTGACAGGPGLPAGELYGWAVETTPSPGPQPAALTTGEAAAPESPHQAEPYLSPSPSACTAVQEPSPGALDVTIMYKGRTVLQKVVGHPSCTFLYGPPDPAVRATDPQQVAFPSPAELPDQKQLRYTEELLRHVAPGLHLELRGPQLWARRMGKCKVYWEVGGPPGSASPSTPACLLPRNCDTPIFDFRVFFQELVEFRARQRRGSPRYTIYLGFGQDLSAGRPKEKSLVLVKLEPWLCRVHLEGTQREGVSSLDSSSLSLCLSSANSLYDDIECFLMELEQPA
Strand,log fluorescence [z-score]
TCACCTTTTCACTTTACACTGTGCTAG,2.13
GACGGACTAGGTATCGGGACGTGCTAG,0.26
TTAGAACTGAGTCTCGATAAGTGCTAG,0.303
GCCGGTATCGGTATCGGGACGTGCTAG,1.64
CCAATTCTTTTTATGCTTTCGTGCTAG,1.15
GACGATATCGGGAATGGAGACGTGCTA,0.103
TTAGGTTTCGACTATCGGATAGTGCTA,5.94
CCATTTCTGTTTTTGCTTTCGTGCTAG,3.35
TTAGATATCAGTTTCAATTAGTGCTAG,1.14
GACAGACTGGGACTGGGGACGTGCTAG,-0.312
GACGATTTCGGGTATCCAGACGTGCTA,0.605
GGTCCTTTCTGCCTCAGAGGGTGCTAG,0.752
TTAGGTTCCCTTTTCCTTGAGTGCTAG,4.17

# Series 2 — method: RNA Bind-n-Seq; molecule type: RNA; sample: in vitro; concentration: 200 nM; notes: whole 134-nt RNA, ends assumed; together with: 150 mM LiCl; reference: input library; direction: higher = stronger binding; each molecule: 7-deaza-guanosine replaces G
# Target: Ras GTPase-activating protein-binding protein 1, full length (G3BP1, Homo sapiens, UniProt Q13283)
# Sequence of UniProt Q13283 (whole entry, looked up): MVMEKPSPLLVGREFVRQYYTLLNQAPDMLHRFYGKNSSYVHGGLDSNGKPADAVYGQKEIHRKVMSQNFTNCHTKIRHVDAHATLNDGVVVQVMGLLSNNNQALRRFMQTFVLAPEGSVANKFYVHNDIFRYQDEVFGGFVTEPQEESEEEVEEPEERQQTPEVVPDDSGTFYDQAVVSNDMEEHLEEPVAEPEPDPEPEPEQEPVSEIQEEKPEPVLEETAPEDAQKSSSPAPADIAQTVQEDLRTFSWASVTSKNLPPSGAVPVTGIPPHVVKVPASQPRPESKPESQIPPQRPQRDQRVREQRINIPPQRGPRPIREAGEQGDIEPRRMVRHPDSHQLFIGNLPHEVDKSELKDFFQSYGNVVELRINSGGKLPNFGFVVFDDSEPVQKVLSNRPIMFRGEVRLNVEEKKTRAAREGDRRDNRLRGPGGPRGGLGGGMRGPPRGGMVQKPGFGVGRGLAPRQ
Strand,log2 enrichment
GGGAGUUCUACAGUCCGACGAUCCCUCAAGUCCUGUGCUACACAUCGUAUGUACCGAAUCGGGCGGGGCGGGGCGGAAAGUAUUAUGUUACGCCGUUCGGAUCUGCACUUCCAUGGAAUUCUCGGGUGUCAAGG,-0.442
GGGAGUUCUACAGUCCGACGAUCCAAGUCCUGUGCUACACAUCGUAUGUACCGAAUCGGCCCGGGCCCGGGGCCCGGGAAAGUAUUAUGUUACGCCGUUCGGAUCUGCACUUCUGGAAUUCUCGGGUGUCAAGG,-0.758
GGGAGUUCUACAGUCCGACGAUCUCCUGUGCUACACAUCGUAUGUACCGAAUCGGGGUUUUUUUGGGGUUUUUGGGGUGGGGAAAGUAUUAUGUUACGCCGUUCGGAUCUGCAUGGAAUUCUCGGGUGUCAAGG,0.39
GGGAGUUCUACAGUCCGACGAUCACCAUGCAGAAAGGCAUCUUUGGGAAGUGGGGCAAGGGGGGGAUAGGGAGGGGGGUAACACUUUGGGAACAGGUGGUCCCAGGUCGUUUCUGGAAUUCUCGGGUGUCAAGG,-0.0135
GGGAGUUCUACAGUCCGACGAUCUAACUUUAGAGGAGGAUCUGAUGGAUAUGGCAGUGGACGUGGAUUUGGGGAUGGCUAUAAUGGGUAUGGAGGAAGACCUGGAGGUGGCAAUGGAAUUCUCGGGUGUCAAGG,-0.337
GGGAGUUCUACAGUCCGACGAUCAAGUCCUGUGCUACACAUCGUAUGUACCGAAUCGGGCCCGGGCCCGGGGCCCGGGGAAAGUAUUAUGUUACGCCGUUCGGAUCUGCACUUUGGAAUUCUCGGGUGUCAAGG,-1.04
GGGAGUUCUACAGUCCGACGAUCUUCUGAGAAGGUUGCGCAGCAGCUGUGCCCGGCAGUCUAGAGGCGCAGAAGAGGAAGCCAUCGCCUGGCCCCGGCUCUCUGGACCUUGUCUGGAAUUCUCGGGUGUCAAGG,-1.47
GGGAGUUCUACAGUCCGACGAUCGCAGGAAGUAAAAACAAAUGGAAAUGCUUCGGAUAGUGGCAGGGGGGGGGGUUGCUAAGGAAAGGGUGGGAUGGGAGUGGGUAAAGAGUUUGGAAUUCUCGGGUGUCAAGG,-0.489
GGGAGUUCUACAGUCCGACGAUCUGGCCCUGGUGGCAUGCGGGGAGGAAGAGGUGGCCUCAUGGAUCGUGGUGGUCCCGGUGCAAUGUUCAGAGGUGGCCGUGGUGGAGACAGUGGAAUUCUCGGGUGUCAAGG,-0.462
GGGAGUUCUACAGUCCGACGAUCAAGUCCUGUGCUACACAUCGUAUGUACCGAAUCGGGUUUUUGGGAGGGUUUUUGGGAAAGUAUUAUGUUACGCCGUUCGGAUCUGCACUUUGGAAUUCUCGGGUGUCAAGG,-0.547
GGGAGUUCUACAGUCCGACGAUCUGGCCCUGGUGGCAUGCGGGGAGGAAGAGGUGGCCACAUGGAUCGUGGUGGUCCCGGUGGAAUGUUCAGAGGUGGCCGUGGUGGAGACAGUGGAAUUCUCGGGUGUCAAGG,0.508

# Series 3 — method: protein binding microarray; molecule type: double-stranded DNA, one strand shown; sample: in vitro; concentration: not given; reference: not given; direction: higher = stronger binding
# Target: Histone acetyltransferase KAT6A, winged helix 1, GST fusion (KAT6A, Homo sapiens, UniProt Q92794, residues 1-85)
# Notes: 8-mer, flanks averaged, mean of 2 arrays, mostly near background
# Construct (chain): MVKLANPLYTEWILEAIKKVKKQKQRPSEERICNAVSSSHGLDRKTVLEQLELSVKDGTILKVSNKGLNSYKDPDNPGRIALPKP
Strand,E-score
AACACGCA,0.0942
AAAGGCTA,-0.128
AGTCCATA,-0.0946
AGGTAAGA,-0.139
AGGCAAGC,-0.035
TATGCCAA,-0.236
GTTCCACA,-0.12
ATTAATCA,-0.208
CCGAGTCC,0.178
AAATCAAA,-0.135
GTAGCGAC,0.187
AGATCGAC,-0.0985
CTTCATTC,-0.186
ATCTTCCA,-0.106
GAGAGAAA,-0.25
ATTACACG,0.127
ACAGCACC,-0.0551
GTCCGGTA,0.149
CCTATTAG,-0.0335
GAGCCAGC,-0.0103
GCGGCGAC,0.437
ACTAGACG,0.0505
AAGACCTA,-0.0849
CATGGCGG,0.242
CCCTGGGC,-0.106

# Series 4 — method: RNA Bind-n-Seq; molecule type: RNA; sample: in vitro; concentration: 365 nM; reference: no-protein control; direction: higher = stronger binding
# Target: RNA binding protein fox-1 homolog 2, RRM domain, GST-SBP tag (RBFOX2, Homo sapiens, UniProt O43251-10, residues 100-194)
# Notes: natural RNA segment, single round, ends assumed
# Construct (chain): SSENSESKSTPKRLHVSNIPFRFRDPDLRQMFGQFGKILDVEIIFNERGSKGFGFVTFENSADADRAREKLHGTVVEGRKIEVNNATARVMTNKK
Strand,RBNS enrichment (R)
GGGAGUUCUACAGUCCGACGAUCUACCAUUUUGAUUAGUCUGAAUGUUUUCAGGCCUUGAAAUAAAUUUUGACUAAGUGAUAUUUUUUCUUCCCUGUGUCAGCUUGAAUCUUACUUUAUGUAUUUCGAAUUUGUGGAAUUCUCGGGUGCCAA,0.452
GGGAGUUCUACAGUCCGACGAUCAUGGAGCCCUUCCCCCAGAAGGCUACUUCCUUGUUUUAGAGGAAGGUACUGCCCAUUGGGAGAUGGGGACAUUGGGACCUCAGCAAUGAAGAACCCUUGUGAAGUAACCAUGGAAUUCUCGGGUGCCAA,0.205
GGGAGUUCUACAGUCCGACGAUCGGCAUUCCCAGGGGCUCCUGUCCAGCUGUCUCUGUCUGGGAAUGAUCUAACCUGGGUUGAGCCUCCUCUCUGCUCUGCCACCGAAAUAAACGUUGAAUUUGGAGUUUGUAUGGAAUUCUCGGGUGCCAA,1.1
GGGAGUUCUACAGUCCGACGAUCCUGUUGGCGCCUAACCUCGCGUGCACUGCAUUCUCAACCCCGUACCAGUGCAUCAUCAGAAGCCUUCCUCGUGACCAUAACUCUGUGUCUGCAGAUAUGUGUUCCCGUGUUGGAAUUCUCGGGUGCCAA,0.255
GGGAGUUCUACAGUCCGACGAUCUGGAUCAGAAACUGGUUUUACCCGGACAUCACAAUCGAGGCCUUCAAAGCAGCGGGGAGUCGGGCUGUGGCAUGUCGUUCACAGAUAAAUGGCACACCUAGAUUCUUCUGUGGAAUUCUCGGGUGCCAA,0.472
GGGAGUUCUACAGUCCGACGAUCUUUCCAUUUCAAACAAAAUUUUAGAAAUUGGUUUGGUGUUCAGCUUCACAUUUCAUUUUUUCUUAGCACAUGUUGAUAAAAUAGUCACAAGGAGAAAUUACCAGUUACGGUGGAAUUCUCGGGUGCCAA,0.47
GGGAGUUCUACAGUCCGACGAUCAUUUCUAGGUAGACCCAAAUGGAACUAAAUCAUGUCACAAGCUGAGAGAAUUACUGAGUUCCUCUCAGGACCCCUGAAGAAGCUAUAAGUCAGUACCAGUAGCUUCAGGGUGGAAUUCUCGGGUGCCAA,0.518
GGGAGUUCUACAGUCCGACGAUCAAACUAAUAAAUAUUUUUUUAUGAAGAAGAAAAAUGUGUAGAUUACAUUUCACAUUUUGUAUUUUUUUUUAUGUGUGUGUGUCUGUAUUCUGGUGUUUGUAACACCAAAGUGGAAUUCUCGGGUGCCAA,0.513
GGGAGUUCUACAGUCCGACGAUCCUCCCCGGCUCUGUGCCGGGGCAGGCACCUGCUGGGGGUUCUGGUUUUUACUUUUUUAAUGUAAGUCUGAGUCUUUGUAAUUAUUGAAUUGUGAGAACAAUUUUGAACAAUGGAAUUCUCGGGUGCCAA,0.397
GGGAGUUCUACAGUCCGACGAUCACCCCUCUUUCUAGGCUGAACCUUGAGUCCCCCUGCUUUUUGGCAGACCUAAUGGAUCACUGUCUUGCAGCUAGUUCUUCAUGUGGGGCCUCUUAGGCCAGUGCCGGAGGUGGAAUUCUCGGGUGCCAA,0.338
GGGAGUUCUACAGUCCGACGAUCACAGAUCUUUGCCAGUGGUUGGCCCUGAUUGAAAACCUGUUUGAAACAGACUGUGUAGGAAAAAUCAGGAUUAAAGAGUGCUGCCUUUAUGGCUCCUUCUUCAGAAUAGGUGGAAUUCUCGGGUGCCAA,0.359
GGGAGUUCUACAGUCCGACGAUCUUUAUUGUACCUAUGCCUGGGUGCUAAAGGUCAUGUAAGGACUAGUUCCUUUGAGGAGGACCCCCUGGGAGCAGUCAAGCUGGAAGAUAGCUACCUGCAAGACACUACUGUGGAAUUCUCGGGUGCCAA,0.321
